Measured values of several laboratories.
Numbered parts are unrelated; each lists some results of a single study. Positions count from the first letter of the parent shown.

Set 1
Target: Prothrombin, mature alpha-thrombin (F2, Homo sapiens, UniProt P00734)
Method: aptamer microarray, sandwich
Molecule type: DNA with 2'F-ANA
Sample: in vitro
Concentration: 200 nM
Setting: whole 15-mer aptamer, many near background
Together with: Cy3 exosite-II aptamer, 400 nM
Direction: higher = stronger binding
Sequence: GGTTGGTGTGGTTGG
Modification	mean fluorescence intensity [a.u.]
2'F-ANA at 1 3 4 5 6 8 9 11	62.6
2'F-ANA at 1 2 3 4 7 8 9 10 11 14	53
2'F-ANA at 4 5 7 10 13 14	45.1
2'F-ANA at 1 2 4 8 11 15	133
2'F-ANA at 1 3 4 6 7 8 11 12 14	77.4
2'F-ANA at 1 2 4 6 8 9 13 15	77.6
2'F-ANA at 1 2 6 8 11 12 13 15	243
2'F-ANA at 2 3 5 7 8 9 11 14	51.9
2'F-ANA at 1 3 6 9 10 12 15	95.7
2'F-ANA at 2 3 5 11 12 15	178
2'F-ANA at 1 2 4 5 6 7 8 9 10 13 15	54.2
2'F-ANA at 1 2 3 5 6 9 10 11 12 13 14	52
2'F-ANA at 2 3 4 7 12 13 15	817
2'F-ANA at 2 3 4 5 6 12 13 14	52.7
2'F-ANA at 1 3 4 6 9 10 15	62.5
2'F-ANA at 2 3 5 10 13 14 15	89.7
2'F-ANA at 1 2 5 8 11 12 14 15	45.6
2'F-ANA at 1 2 7 9 11 13 14	52.4
2'F-ANA at 1 3 4 5 6 10 11 12 14	65.2
2'F-ANA at 6 9 12 15	677
2'F-ANA at 1 3 5 8 9 10 11 12 14 15	54.2

Set 2
Target: ABI1, truncated, D143A, DHFR fusion (Arabidopsis thaliana)
Method: DHFR PCA, deep sequencing
Sample: yeast
Setting: methotrexate growth selection, single substitutions
Together with: (+)-ABA 58 µM
Relative to: wild-type fitted maximum
Direction: higher = stronger binding
Parent: PYL1, truncated, DHFR fusion (Arabidopsis thaliana); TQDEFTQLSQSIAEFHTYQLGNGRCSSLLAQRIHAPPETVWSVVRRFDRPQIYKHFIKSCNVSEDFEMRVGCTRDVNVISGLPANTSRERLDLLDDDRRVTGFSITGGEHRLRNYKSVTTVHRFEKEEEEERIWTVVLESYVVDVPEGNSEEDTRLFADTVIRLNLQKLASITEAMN
Variant	relative binding score
R49S	81.1%
N77L	84%
E64D	88.5%
R24L	76.5%
K116L	-2.07%
D153P	-0.255%
K126G	92%
L94C	61.1%
A13M	76.7%
L8E	44.9%
E67C	81.2%
M176W	77.7%
R88C	80.4%
T120S	99%
E4I	95.7%
V137R	-5.03%
T135D	5.29%
L156V	83.4%
N114C	32.7%
P146H	16.9%
D65M	74.2%
R24K	92%
R32M	81.5%
D159A	41.3%
E4A	82.6%

Set 3
Target: CCNA1, cyclin fold, Cln2 fusion (human)
Method: yeast growth competition, sequencing
Sample: yeast
Setting: weak parent motif
Relative to: not given
Direction: higher = stronger binding
Parent: REV3L docking peptide (human); PPVIIKYIIINRF
Variant	normalised enrichment score
PPVIIKYIAINRF [I9A]	0.0711
PAVIIKYIIINRF [P2A]	-0.0145
PPVIIKYIIANRF [I10A]	-0.0344
PPAIIKYIIINRF [V3A]	0.315
APVIIKYIIINRF [P1A]	0.0761
PPVIAKYIIINRF [I5A]	-0.339
PPVIIKYAIINRF [I8A]	-0.2

Set 4
Target: RNA binding protein fox-1 homolog 2, RRM domain, GST-SBP tag (RBFOX2, Homo sapiens, UniProt O43251-10, residues 100-194)
Method: RNA Bind-n-Seq
Molecule type: RNA
Sample: in vitro
Concentration: 365 nM
Setting: natural RNA segment, single round, ends assumed
Relative to: no-protein control
Direction: higher = stronger binding
Shared flanks, not repeated: GGGAGUUCUACAGUCCGACGAUC … UGGAAUUCUCGGGUGCCAA
Target sequence (chain): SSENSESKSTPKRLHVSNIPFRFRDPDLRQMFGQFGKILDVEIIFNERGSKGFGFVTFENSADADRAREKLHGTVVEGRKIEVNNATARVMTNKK
Sequence	RBNS enrichment (R)
UGGCACCAGCACCUUAGAAGUUGUUGGCAGAAGGCACUUAAACUGUGGGAGAAGUGUGCACACCUUUGAGUCCCUUCCCUCAAGGUUAAAGCUCCUGUCAGACUCUCAGA	0.305
GUCCAAGGAACCAAAGGAGGCUCUCGGAGAUGCCCCCAAACGUCCCAAAGUACACAGAGCUAAGUAAUCAAUUGCUACACUUAUUGCACAGCUAGACACGGAUUUCAAGU	0.63
UGGUUUUGAUUUUCUUUUUGUUUUUCUUUCUUCUUCUUAUUUUUUUCAUUUGAGUCUUAGCUCCCAUUUAAGUUAUGCUUCUGACCUUGUAUGGUCUGUAAGCUUGCCCA	1.26
GAGCUGCUGCUGGUCCCCCCUUCUGACGUGCAAUGCAAAAGGGACAUCAUGUAUACGCAGCAUUUAUUUGGAGUUUUUCCUUUGGCUUUUUUUCCUCUCUUUUUCAGUUA	0.524
CUAACUCCUAACUAACCAGCUCGCAGUGCGCUGCAGCCUUCCUUUUACCUUCAGCUGUCUCAGGAAGACCUUGCUGUCCCAGAGUGUACUGAGAGCAUCACUAUCAGGCA	2.78
UUGGCUCAGAUUUAUUCUUAAUUGGAUGUUUAAAGCAUGUACUACCUUGUUACAGUUGGUUUAGUGUAGUGGAUUAUUGACAUGACAUCAUGAGAAGAUGUGUAAUUUUA	9.41
CAUUGUUCUAUGUCUUUGUUGGCUGGUGUAUUUUAUAAACUAAAGCUGCCUAUGUUUCUUUUUAAAGCUCGCAUUCCCAGAAUCAGCUUAGGCUUCUAUGAAUUCAGCCU	0.659
ACGUAUGAGUACCUCACGAGAUUGCCACCCUACUCCGCCGAAAGGGUGGAAAACUAGAGAGAUCACCCUCGACCUGCCUGGGUAGGGCUGGCAGUAGCUGUCCCAGCCUC	0.252

Excerpt of the above (set 2):
Variant	relative binding score
D153P	-0.255%
A13M	76.7%
L94C	61.1%
